# Assay results collected from several papers.
# Each numbered part is a random draw from the data of one study; scales do not carry over between parts. Substitutions count along the parent as printed.

# Block 1
# Target: CREB3L1, bZIP domain (human)
# Technique: DHFR protein complementation
# Sample: yeast
# Setting: single substitutions, most at no-binding floor
# Relative to: wild-type JUN-FOS pair
# Direction: higher = stronger binding
# Parent: JUN, bZIP domain (human); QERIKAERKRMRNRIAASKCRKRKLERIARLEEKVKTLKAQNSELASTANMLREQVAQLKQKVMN; partner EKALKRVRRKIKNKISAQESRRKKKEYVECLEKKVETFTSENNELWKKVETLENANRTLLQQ
Substitution,binding fitness [natural log]
L38R,-1.47
T37C,-1.14
A40G,-1.45
T37A,-1.26
V56H,-1.47
K34E,-1.58
A49M,-1.43
K34A,-1.42
L52W,-1.47
A46Q,-1.3
L38N,-1.48
A29Q,-1.49
K34D,-1.02
A29E,-1.34
M51N,-1.21
E32D,-1.52
K34H,-1.5
Q55V,-1.49

# Block 2
# Substance: PhoQ, residues 284 288 289 292 302 303 NLSRDF
# Technique: Sort-seq
# Item: YFP reporter
# Sample: E. coli
# Setting: PhoQ-PhoP variant library
# Added: 10 µM Mg2+
# Relative to: high Mg2+ state
# Direction: higher = stronger signaling
target,fold induction
"PhoP, residues 12 14 15 18 19 GMGLL (Escherichia coli, UniProt P23836)",7.32
"PhoP, residues 12 14 15 18 19 LFHKL (Escherichia coli, UniProt P23836)",0.769
"PhoP, residues 12 14 15 18 19 QQAYL (Escherichia coli, UniProt P23836)",11

# Block 3
# Target: CCND2, cyclin fold, Cln2 fusion (human)
# Technique: yeast growth competition, sequencing
# Sample: yeast
# Setting: weak parent motif
# Relative to: not given
# Direction: higher = stronger binding
# Parent: RBL2 docking peptide (human); STTRRRLFVENDS; partner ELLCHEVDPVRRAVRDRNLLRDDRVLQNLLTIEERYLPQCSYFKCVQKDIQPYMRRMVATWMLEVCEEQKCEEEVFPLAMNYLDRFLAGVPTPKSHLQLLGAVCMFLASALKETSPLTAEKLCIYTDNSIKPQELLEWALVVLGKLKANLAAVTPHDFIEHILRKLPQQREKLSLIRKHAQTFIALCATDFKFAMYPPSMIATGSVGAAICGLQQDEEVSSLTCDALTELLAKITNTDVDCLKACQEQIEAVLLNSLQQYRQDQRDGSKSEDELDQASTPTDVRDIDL
Substitution,normalised enrichment score
T3N,0.232
R4E,0.136
R6N,-0.294
R6D,-0.0241
E10P,0.581
R5I,0.277
T2C,-0.0736
R4M,0.0382
S1E,0.0597
L7Q,-0.187
R5K,0.23
L7A,0.573

# Block 4
# Target: RNA binding protein fox-1 homolog 2, RRM domain, GST-SBP tag (RBFOX2, Homo sapiens, UniProt O43251-10, residues 100-194)
# Technique: RNA Bind-n-Seq
# Molecule type: RNA
# Sample: in vitro
# Tested at: 365 nM
# Setting: natural RNA segment, single round, ends assumed
# Relative to: no-protein control
# Direction: higher = stronger binding
# Constant ends, left off below: GGGAGUUCUACAGUCCGACGAUC … UGGAAUUCUCGGGUGCCAA
# Construct (chain): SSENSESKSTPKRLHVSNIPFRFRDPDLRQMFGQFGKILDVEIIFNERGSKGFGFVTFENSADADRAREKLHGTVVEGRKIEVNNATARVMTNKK
Oligonucleotide,RBNS enrichment (R)
GCCGCUGCCGGCCCCUCCUCAGACUCCGCCUUUGGGAGCACACCUGCUUUGCCUUGCUGCCUGUGCAAAUGUUGGACAAGCAGACACACUCACACUCGUCCCCAGCUUAG,0.431
CAAGAUGGGGUGGCGUUUUUCCCAUACUCACUCCUUCUUGAUUCUUCACUGUGGUCUUUUCCAGAUAAGUUACUUCUUUUGCAUCUGAAAUGGGAUGUGGCCAUGGCAUU,0.786
GCCCACAGUGUCCUGUUGGCCAGCGGGGUUCACGGCUAGUGUCUGGAAGCCUGCUGGCCUCGGGUAUGGGCUUCUCUGCCAGUCUCUGGACUGGCCCUUCAAGGAGGUGG,0.181
CCAGCACUGUGUUCUGCGUUUGGUCUCAUACCUGCGUCUACCUUCCAUCUGUGUCCAGCGGCCCCGGCUCCAGCCCAGCCAGCACUCUGCAGGGUCACACGCACCGUGUC,0.507
UCUCCCAUCCUAAGCUGUUCAUUUUAAGAUGUGGCAGAGUAAAGUGGUUUUUCCUAACUUACUUGCUAUCAACAUACCACUGGAAAAAAUCUCUGAGGUAUCAAAGAAUU,0.278
AGAAAAAAAAAGAAUAAAUAAAGGAAGAGGUUUAUAAUUUGCCCUAUAUCUGUACAGAGUAUAUUCGGUAAGUGCACUAUUAAAUGUCUAAGGGAAGAGUCUGGCCUGCU,1.64
GGCUUUUCUACUCCAGGCAAACCUGCCCCAUCUUGUCGCUUUUAGGACCUCCCACAACCUGGUUCCCCACACAUCCAUAGUUCUGCCUCCCCAGCUUCUCCUCCCCAGUU,0.808
UUUCUCUGUUGGUUUCUUCCUCAAGUUUGCAUUGUUUUCUUUUGUUAAAAUUAGAGAUUUCUUUUUAUUUUCCAGUUAUAGUAAUACUAGCUGUCAGCUUAAACCCUCUG,0.57
GAUCAGCUGCCUGUGGUUGGGACAGGGCACACCACCUUCCCUCAGACGGUCUUGCUAAGUAUAUGACUGGGAGAGUUUGGUCAUUUUUGUGUACCCUAUGGUGGGAAUGU,1.28
AUUGUGCUAACAAGUUGUGCUAAUAUUUAACUCAGCCAGAGUUUCACUCAUUUGCUAAGCAUUGGGAACAUUCUGUGUAUUUACCUUAAACAUAAAUAAAUUCCUGAGAG,0.466
CAAAUAUGAGUGUGUGGAUGCUUUAAUUCAUUUAACCUCACUCCUCAAAGGUAACAUGCAACUUAGUUCUGUUAUAUGAGAGUCUUUUUCUUUAAUGUACUGGAAAAAGC,0.366
AUGCUGGGACUGCUCCUACUCUCUGUCCCACCCCUCACCCAGCUGUGGUCCGGCUUUGGGAGAGUGGUGAAUUGCGCUGCCCGAACUCGGAGCGGAGCAGGGUAGGGACC,0.362

# Repeated from above (block 3):
Substitution,normalised enrichment score
T3N,0.232
L7A,0.573
T2C,-0.0736
